Results pooled from the literature.
Values joined by “and” are separate records of one study, mostly repeats; a detail may differ.
MAPK1: Mitogen-activated protein kinase 1 (MAPK1, Homo sapiens, UniProt P28482)
UniProt P28482, sequence (whole entry, looked up): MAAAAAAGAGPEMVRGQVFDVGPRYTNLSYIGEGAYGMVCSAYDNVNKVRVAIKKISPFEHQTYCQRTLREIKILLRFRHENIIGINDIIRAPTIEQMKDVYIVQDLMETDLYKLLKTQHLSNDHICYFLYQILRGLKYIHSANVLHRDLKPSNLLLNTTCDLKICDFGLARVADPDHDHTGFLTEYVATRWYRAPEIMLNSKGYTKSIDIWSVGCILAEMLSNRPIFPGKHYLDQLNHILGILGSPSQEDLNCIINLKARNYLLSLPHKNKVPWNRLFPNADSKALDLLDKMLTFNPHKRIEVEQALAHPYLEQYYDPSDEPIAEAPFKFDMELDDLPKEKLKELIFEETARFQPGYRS

Compound | target | assay | system | conditions | scale | quantity | result
Nc1nc(Nc2ccccc2)sc1C(=O)c1ccccc1 | MAPK1 | enzyme activity, inhibitor |  | 10 µM |  | remaining activity | 26%
Nc1ncc(-c2cc(-c3cnn(CC(F)(F)F)c3)ncc2F)nc1C(=O)NC1CNCC(F)C1 (stereo not shown) | MAPK1 | enzyme activity |  | 1 µM | baseline: DMSO control | remaining activity | 89.2%
NC(=O)C[C@H]1CCc2sc3ncnc(O[C@H]4CC[C@H](N5CCOCC5)CC4)c3c21 | MAPK1 | enzyme activity, inhibitor |  | 10 µM |  | inhibition | 4%
C[C@H]1CN(C(=O)c2cn(-c3ccnc(N)n3)c3cc(C#CC4(O)CCCCC4)ccc23)CCN1 | MAPK1 | enzyme activity, inhibitor, FRET |  | 1 µM |  | inhibition | -1%
CN1CCN(Cc2ccc(-c3ccc(CO[C@H]4CCC[C@@H]4NC(=O)c4cc(-c5cnn(C)c5)cnc4N)cc3)cc2)CC1 | MAPK1 | enzyme activity, inhibitor |  | 0.1 µM |  | inhibition | -1%
Cc1cccc(O[C@H]2CCC[C@@H](C(C)CNCc3ccncc3)C2)c1 (relative stereo) | MAPK1 | enzyme activity, inhibitor |  | 10 µM |  | inhibition | -11%
CNC(=O)C1CCN(c2cc(C)c(F)cc2NC(=O)c2ccc(-c3cc(O)ccc3C)c(C)c2)CC1 | MAPK1 | binding, competition with immobilised ligand |  | 1 µM |  | remaining binding | 100%
CN(C)c1ccc(-n2cc(COC(=O)[C@]3(C)C=C(C(=O)OC(C)(C)C)C(=O)CC3)nn2)cc1 | Mitogen-activated protein kinase 1, with MKK1 (MAPK1, Homo sapiens, UniProt P28482) | MKK1-ERK2 interaction, NanoBiT luminescence | HEK293T | concentration not given | baseline: untreated | relative protein interaction | 0.672
Cc1cnc2nc1Nc1cccc(c1)COC/C=C/COCc1cc(ccc1OCCN1CCOCC1)N2 | MAPK1 | binding, competition with immobilised ligand |  | 0.1 µM |  | remaining binding | 99%
C=CC(=O)Nc1cccc(-c2cnc3[nH]cc(C(=O)NC(C)(C)C)c3n2)c1 | MAPK1 | kinase activity |  | 0.1 µM |  | inhibition | 2%
CN1CC[C@@H](COc2cnc(C#N)cc2-c2ccn3nc(NC(=O)C4CC4)cc3c2)C1 | MAPK1 | inhibitor, KinaseProfiler panel |  | 1 µM |  | inhibition | -1%
C=CC(=O)Nc1cc(-c2nn(C3CCN(CCNC(=O)[C@H](C)CCC45CC6CC(CC(C6)C4)C5)CC3)c3ncnc(N)c23)ccc1Oc1ccccc1 | MAPK1 | inhibitor, KiNativ profiling | biochemical | 2 µM |  | inhibition | 2.8%
COC(=O)[C@@]1(C)C=C(C(=O)Nc2cccc(C(=O)Nc3ccc(Nc4nccc(-c5cccnc5)n4)c(C)c3)c2)C(=O)CC1 | MAPK1 | kinase activity, inhibitor |  | 0.1829 µM, unit not given | baseline: no inhibitor | remaining activity | 0.913
Cc1nc2c(F)cc(-c3nc(Nc4ccc(CNC(=O)CCCCCCC(=O)NO)cc4)ncc3F)cc2n1C(C)C | MAPK1 | enzyme activity, inhibitor |  | 1 µM |  | inhibition | 37%
O=C=[N][Ru-4]123([n]4c5ccc(O)cc5c5c6c(c7cc(F)c[n+]1c7c54)C(=O)NC6=O)[S+]1CC[S+]2CC[S+]3CC1 (stereo not shown) | MAPK1 | enzyme activity |  | 100 nM, human enzyme, added: 10 µM ATP | baseline: untreated | remaining activity | 89%
COc1ccc(NC(=O)Nc2ccc3c(c2)C(=O)N(C(C)CO)CC(C)C(CN(C)Cc2ccc4c(c2)OCO4)O3)cc1 (stereo not shown) | MAPK1 | kinase activity, KinaseProfiler |  | 0.03 µM, species human | baseline: control | remaining activity | 97%
Cc1ccc(-c2c(/C=C(\C#N)C(=O)NC(C)C)n(CCCO)c3ncnc(N)c23)cc1 | MAPK1 | binding, competition with immobilised ligand |  | 1 µM |  | remaining binding | 95%
COCC12C(=O)NC3C4(C(OC)CC1O)C1CC5(O)C(OC)C(O)C(OC(C)=O)(C1C5OC(=O)c1ccccc1)C3(O)C(OC)C24 (stereo not shown) | MAPK1 | kinase activity, inhibitor, ProQinase kinase profiling |  | 25 µM | baseline: control | remaining activity | 90% and 105%
Cc1cccc(-c2ccc3nc(NC(=O)C4CCCO4)nn3c2)c1 (stereo not shown) | MAPK1 | enzyme activity, Dundee kinase panel |  | 10 µM |  | remaining activity | 93%
C#CCOC(=O)[C@]1(C)C=C(C(=O)OC(C)(C)C)C(=O)CC1 | MAPK1 | enzyme activity, D-SENSOR |  | 4.938 µM, single replicate |  | normalized kinase activity | 0.942 and 0.653 and 0.758
Cc1cccc(-c2ccc3nc(NC(=O)C4CCCCC4)nn3c2)c1 | MAPK1 | enzyme activity, Dundee kinase panel |  | 10 µM |  | remaining activity | 75%
COc1ccc(O)cc1-c1c[nH]c2ncc(-c3cncc(C(=O)N(C)C)c3)cc12 | MAPK1 | binding, competition with immobilised ligand |  | 0.2 µM |  | inhibition | -17.6%
